Measured values gathered from unrelated publications.
Every numbered part comes from another study and shows a few of its results, in no order. Positions count from the first letter of the parent shown.
Chain of UniProt Q9FX25 (whole entry, looked up): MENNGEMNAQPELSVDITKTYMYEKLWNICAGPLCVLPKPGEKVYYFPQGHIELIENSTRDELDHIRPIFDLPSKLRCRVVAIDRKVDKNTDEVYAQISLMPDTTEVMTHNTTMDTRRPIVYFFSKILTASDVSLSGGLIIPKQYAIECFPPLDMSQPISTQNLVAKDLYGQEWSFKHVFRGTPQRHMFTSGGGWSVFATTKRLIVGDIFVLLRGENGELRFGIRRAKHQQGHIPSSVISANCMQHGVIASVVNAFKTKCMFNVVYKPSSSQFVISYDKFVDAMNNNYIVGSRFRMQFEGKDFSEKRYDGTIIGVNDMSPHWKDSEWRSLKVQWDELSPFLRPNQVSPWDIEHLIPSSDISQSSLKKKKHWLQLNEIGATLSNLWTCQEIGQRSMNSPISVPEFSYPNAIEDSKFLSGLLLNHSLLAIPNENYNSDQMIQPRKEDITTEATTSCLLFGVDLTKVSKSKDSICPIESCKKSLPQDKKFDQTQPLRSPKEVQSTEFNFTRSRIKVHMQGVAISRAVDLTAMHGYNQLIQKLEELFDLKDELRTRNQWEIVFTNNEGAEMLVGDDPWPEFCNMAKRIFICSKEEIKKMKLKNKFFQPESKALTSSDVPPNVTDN
Chain of UniProt Q8LAL2 (whole entry, looked up): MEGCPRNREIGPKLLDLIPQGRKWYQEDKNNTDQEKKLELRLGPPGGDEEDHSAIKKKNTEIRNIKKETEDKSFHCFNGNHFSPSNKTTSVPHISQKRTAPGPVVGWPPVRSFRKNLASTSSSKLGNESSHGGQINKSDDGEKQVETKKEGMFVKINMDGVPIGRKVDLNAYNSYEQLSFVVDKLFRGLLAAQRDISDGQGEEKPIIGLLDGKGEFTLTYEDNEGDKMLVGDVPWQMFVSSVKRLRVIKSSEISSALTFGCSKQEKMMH
Chain of UniProt Q9C5W9 (whole entry, looked up): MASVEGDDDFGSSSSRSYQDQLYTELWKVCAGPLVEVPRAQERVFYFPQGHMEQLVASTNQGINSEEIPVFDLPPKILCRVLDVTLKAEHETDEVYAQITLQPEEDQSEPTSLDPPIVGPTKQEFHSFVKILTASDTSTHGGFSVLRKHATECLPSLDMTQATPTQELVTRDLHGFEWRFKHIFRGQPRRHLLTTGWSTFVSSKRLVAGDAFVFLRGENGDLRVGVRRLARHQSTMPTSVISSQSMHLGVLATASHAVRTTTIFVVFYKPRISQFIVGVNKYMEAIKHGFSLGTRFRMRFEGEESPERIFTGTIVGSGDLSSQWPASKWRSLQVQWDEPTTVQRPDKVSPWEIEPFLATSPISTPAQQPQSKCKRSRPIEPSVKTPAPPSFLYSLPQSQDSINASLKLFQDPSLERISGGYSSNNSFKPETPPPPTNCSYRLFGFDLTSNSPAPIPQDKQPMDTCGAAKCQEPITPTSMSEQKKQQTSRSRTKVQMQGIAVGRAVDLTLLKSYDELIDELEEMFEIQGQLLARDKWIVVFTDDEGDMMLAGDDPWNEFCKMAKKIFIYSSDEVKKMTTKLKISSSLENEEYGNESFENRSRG
Chain of UniProt P93024 (whole entry, looked up): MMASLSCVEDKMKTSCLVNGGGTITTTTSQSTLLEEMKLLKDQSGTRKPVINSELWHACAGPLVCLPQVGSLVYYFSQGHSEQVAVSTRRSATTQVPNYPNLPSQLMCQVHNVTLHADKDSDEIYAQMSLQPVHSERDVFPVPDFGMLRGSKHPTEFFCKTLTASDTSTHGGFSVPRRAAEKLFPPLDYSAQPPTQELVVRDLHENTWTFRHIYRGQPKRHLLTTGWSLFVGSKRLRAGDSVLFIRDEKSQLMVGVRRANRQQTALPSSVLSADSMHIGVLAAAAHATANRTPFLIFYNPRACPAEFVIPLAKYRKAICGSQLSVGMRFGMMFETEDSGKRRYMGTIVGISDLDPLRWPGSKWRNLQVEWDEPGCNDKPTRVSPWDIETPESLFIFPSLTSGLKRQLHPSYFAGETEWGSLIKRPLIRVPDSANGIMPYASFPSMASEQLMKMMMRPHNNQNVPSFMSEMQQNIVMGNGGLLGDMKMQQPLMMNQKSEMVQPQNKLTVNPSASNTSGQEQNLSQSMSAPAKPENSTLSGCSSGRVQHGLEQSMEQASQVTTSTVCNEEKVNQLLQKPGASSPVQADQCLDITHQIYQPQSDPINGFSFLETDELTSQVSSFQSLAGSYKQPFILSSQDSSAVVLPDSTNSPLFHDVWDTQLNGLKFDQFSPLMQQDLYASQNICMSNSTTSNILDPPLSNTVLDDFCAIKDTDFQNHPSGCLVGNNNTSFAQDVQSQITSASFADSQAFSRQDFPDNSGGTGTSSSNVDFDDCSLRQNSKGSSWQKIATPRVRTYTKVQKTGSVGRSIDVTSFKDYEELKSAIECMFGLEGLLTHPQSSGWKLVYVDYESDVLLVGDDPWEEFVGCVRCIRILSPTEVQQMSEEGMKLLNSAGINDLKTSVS

Series 1
Molecule: B1 (IAA13)
Technique: two-hybrid
Direction: higher = firmer interaction
B1: IAA13 (Arabidopsis thaliana, UniProt Q38831); chain MITELEMGKGESELELGLGLSLGGGTAAKIGKSGGGGAWGERGRLLTAKDFPSVGSKRAADSASHAGSSPPRSSSQVVGWPPIGSHRMNSLVNNQATKSAREEEEAGKKKVKDDEPKDVTKKVNGKVQVGFIKVNMDGVAIGRKVDLNAHSSYENLAQTLEDMFFRTNPGTVGLTSQFTKPLRLLDGSSEFVLTYEDKEGDWMLVGDVPWRMFINSVKRLRVMKTSEANGLAARNQEPNERQRKQPV
| partner | scale | positive tests |
| --- | --- | --- |
| ARF18 482-602 (Arabidopsis thaliana, UniProt Q9C5W9) | relative to: out of 4 tests | 0 |
| IAA26 (Arabidopsis thaliana, UniProt Q8LAL2) | relative to: out of 2 tests | 0 |
| ARF5 788-902 (Arabidopsis thaliana, UniProt P93024) | relative to: out of 4 tests | 4 |
| ARF13 (Arabidopsis thaliana, UniProt Q9FX25) | relative to: out of 4 tests | 0 |

Series 2
Target: CCNE1, cyclin fold, Cln2 fusion (human)
Technique: yeast growth competition, sequencing
Matrix: yeast
Notes: weak parent motif
Relative to: not given
Direction: higher = stronger binding
Parent: SLBP docking peptide (human); ARYKRKLLINDFG
| Substitution | normalised enrichment score |
| --- | --- |
| ARYKRKLLINDFI [G13I] | 0.29 |
| ARYKRKLLINSFG [D11S] | 0.0444 |
| AFYKRKLLINDFG [R2F] | 0.674 |
| ARYKRKLLDNDFG [I9D] | 0.0106 |
| ARYDRKLLINDFG [K4D] | -0.127 |
| ARYKRKLLIFDFG [N10F] | 1.13 |
| ARSKRKLLINDFG [Y3S] | 1.3 |
| HRYKRKLLINDFG [A1H] | 0.724 |
| ARYKRKLLIYDFG [N10Y] | 0.757 |
| DRYKRKLLINDFG [A1D] | 0.808 |
| ARYKRKLLIWDFG [N10W] | 1.81 |
| ARYKRKLLINEFG [D11E] | 0.613 |
| ARYKRKLLINDYG [F12Y] | 1.04 |
| ARYKRKMLINDFG [L7M] | 0.353 |
| ARYKRKLLISDFG [N10S] | 0.665 |
| ARYKRKLLINDFK [G13K] | 0.999 |
| ARYKRKLLINDVG [F12V] | -0.056 |

Series 3
Target: Fragile X messenger ribonucleoprotein 1, C-terminal low-complexity region (Fmr1, Mus musculus, UniProt P35922)
Technique: RNA Bind-n-Seq
Form: RNA
Matrix: in vitro
Concentration: 200 nM
Notes: whole 134-nt RNA, ends assumed
With: 150 mM KCl
Relative to: input library
Direction: higher = stronger binding
Constant ends, left off below: GGGAGUUCUACAGUCCGACGAUC … UGGAAUUCUCGGGUGUCAAGG
| Sequence | log2 enrichment |
| --- | --- |
| UGCGUGCUUGUGUCCUGGAGCUGGAAGAGCGGCUGAGCACGCAGGAGGGCUUGGUGCAAGAGCUUCAGAAAAAACAGGUGGAAUUGCAGG | -0.227 |
| UCAAGUCCUGUGCUACACAUCGUAUGUACCGAAUCGGGUUUUUGGGUGGGUGGGAAAGUAUUAUGUUACGCCGUUCGGAUCUGCACUUCC | 1.14 |
| AAGUCCUGUGCUACACAUCGUAUGUACCGAAUCGGGAGGGAAAGGGAAAAAAAGGGAAAGUAUUAUGUUACGCCGUUCGGAUCUGCACUU | 0.13 |
| CCUCAAGUCCUGUGCUACACAUCGUAUGUACCGAAUCGGGUUGGUUGGUUGGGAAAGUAUUAUGUUACGCCGUUCGGAUCUGCACUUCCA | 0.116 |
| CACAGACAACACGCACCCACACAGACACAGAGGGAAGGGGUUGGGAUGGGGACAGGGUGCACAGCAGGGCGGGGUAGGAGCCCAGCCCCU | 1.2 |
| UGGCCCUGGUGGCAUGCGGGGAGGAAGAGGUGGCCUCAUGGAUCGUGGUGGUCCCGGUGGAAUGUUAAGAGGUGGCCGUGGUGGAGACAG | 0.0164 |
| CACAGACAACACGCACCCACACAGACACAGAGGGAAGGGGUUGGGAUGGGGACAGGGUGCACAGCAGGGCGGGGUAGGACCCCAGCCCCU | 1.25 |
| CCUGUGCUACACAUCGUAUGUACCGAAUCGGGGUUUUUGGGGUUUUUUUGGGGUUUGGGGAAAGUAUUAUGUUACGCCGUUCGGAUCUGC | 0.558 |
| AGUCCUGUGCUACACAUCGUAUGUACCGAAUCAAAUUUUUAAACCCAAACCCCCAAAAAAGUAUUAUGUUACGCCGUUCGGAUCUGCACU | -0.297 |
| UGGGGUAGACCAGUUCCAUGGCACUGAAUAUGUGUGCUGCCCUCAGACAAAGAUUAUUGGAUCUGUGUCAAAAGAAGAGGAAGAGGAAGA | -1.2 |
| UCAAGUCCUGUGCUACACAUCGUAUGUACCGAAUCGGGAGGGAAAGGGAAAGGGAAAGUAUUAUGUUACGCCGUUCGGAUCUGCACUUCC | 0.82 |
| UGGGAGGUGGAUUUUGUUUAUUUUUUUAGCUCAUUUCCAGGGGUGGGCAUUUUUUUUUAAUAUGUGUCAUGAAUAAAGUUGUUUUUGAAA | 0.265 |
| UGGGAGGUGGAUUUUGUUUAUUUUUUUAGCUCAUUUCCAGGGCUGGGAAUUUUUUUUUAAUAUGUGUCAUGAAUAAAGUUGUUUUUGAAA | -0.355 |
| GUCCUGUGCUACACAUCGUAUGUACCGAAUCGGGUUUUUUGGGUUUUUUGGUUUUUUGGAAAGUAUUAUGUUACGCCGUUCGGAUCUGCA | -0.654 |

Series 4
Target: MAFK, bZIP domain (human)
Technique: DHFR protein complementation
Matrix: yeast
Notes: single substitutions, most at no-binding floor
Relative to: wild-type JUN-FOS pair
Direction: higher = stronger binding
Parent: JUN, bZIP domain (human); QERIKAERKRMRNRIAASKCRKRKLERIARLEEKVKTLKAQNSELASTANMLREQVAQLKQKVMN; partner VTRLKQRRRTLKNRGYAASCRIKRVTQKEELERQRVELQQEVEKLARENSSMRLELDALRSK
| Substitution | binding fitness [natural log] |
| --- | --- |
| L45N | -1.5 |
| K36V | -1.49 |
| Q41H | -1.44 |
| M51N | -1.42 |
| E32K | -1.51 |
| K39H | -1.52 |
| A46L | -1.5 |
| T37W | -1.3 |
| L31N | -1.54 |
| M51L | -1.53 |
| V56E | -1.5 |
| R53I | -1.54 |
| Q58S | -1.55 |
| V35H | -1.48 |

Series 5
Target: ABI1, truncated, D143A, DHFR fusion (Arabidopsis thaliana)
Technique: DHFR PCA, deep sequencing
Matrix: yeast
Notes: methotrexate growth selection, single substitutions
With: (+)-ABA 0.0091 µM
Relative to: wild-type fitted maximum
Direction: higher = stronger binding
Parent: PYL1, truncated, DHFR fusion (Arabidopsis thaliana); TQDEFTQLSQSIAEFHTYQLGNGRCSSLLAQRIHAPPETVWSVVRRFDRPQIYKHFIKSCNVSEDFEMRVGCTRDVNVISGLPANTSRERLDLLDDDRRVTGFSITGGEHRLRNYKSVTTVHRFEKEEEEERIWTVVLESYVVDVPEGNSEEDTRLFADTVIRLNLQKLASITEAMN; partner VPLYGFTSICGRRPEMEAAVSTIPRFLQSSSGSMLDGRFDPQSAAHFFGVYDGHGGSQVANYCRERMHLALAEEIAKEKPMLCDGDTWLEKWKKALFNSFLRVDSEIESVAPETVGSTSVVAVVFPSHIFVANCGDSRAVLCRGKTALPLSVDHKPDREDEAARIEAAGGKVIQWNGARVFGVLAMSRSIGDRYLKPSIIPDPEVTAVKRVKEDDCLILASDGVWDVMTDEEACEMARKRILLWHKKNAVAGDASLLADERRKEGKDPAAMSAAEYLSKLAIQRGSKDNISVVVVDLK
| Substitution | relative binding score [%] |
| --- | --- |
| H122C | -10.4 |
| S150R | 7.63 |
| D96K | -6.54 |
| C25K | 0.91 |
| T86I | 44.2 |
| D3G | 8.14 |
| H110L | 15.8 |
| P37H | -3.69 |
| E64F | -4.97 |
| K116G | 7.45 |
| R132Y | 4.7 |
| S171W | 9.39 |
| M176C | 5.41 |
| R49F | -3.9 |
| G81N | 27.4 |
| R69W | -3.99 |
| E129C | 28.6 |

Series 6
Target: Sal-like protein 4, full length isoform B (SALL4, Homo sapiens, UniProt Q9UJQ4-2, residues 1-616)
Technique: universal PBM
Form: double-stranded DNA, one strand shown
Matrix: in vitro
Concentration: not given
Notes: 8-mer, flanks averaged, mean of replicates
Direction: higher = stronger binding
| Sequence | E-score |
| --- | --- |
| CTGGTTCC | -0.221 |
| ACGTGACC | -0.191 |
| AAGAGAAT | 0.0718 |
| AGATACTG | 0.12 |
| GTGGCCGA | -0.179 |
| GGACCTCA | -0.182 |
| AGAACGAC | -0.0451 |
| ACGCGAGG | -0.171 |
| TAGTGACA | 0.133 |
| CATTACGG | -0.0792 |
| CCAAGTTA | 0.197 |
| GAACGTGA | -0.0617 |
| ACATCTAT | 0.257 |
| AGTGCTAT | 0.107 |
| AGGATCGC | -0.159 |
| CCCCGATA | -0.0381 |
| ACCTCCTA | 0.014 |
| TTGGAAAA | 0.225 |
| GTGCAACA | -0.0783 |
| AGCGTCAT | 0.0228 |
| TAACCAGA | 0.0547 |
| CCCACTAG | -0.237 |

Excerpt of the above (series 4):
| Substitution | binding fitness [natural log] |
| --- | --- |
| M51N | -1.42 |
| E32K | -1.51 |
| K39H | -1.52 |
| A46L | -1.5 |
| T37W | -1.3 |
| L31N | -1.54 |
| M51L | -1.53 |
| V56E | -1.5 |
| R53I | -1.54 |
| Q58S | -1.55 |
